Values quoted from earlier work, collected from citations in different studies.
Each line is one published result; not all experiments were run side by side. Converted amounts (≈) assume the structure as drawn.

The Cmax of O=C(O)Cc1ccccc1Nc1c(Cl)cccc1Cl is reported as 6280 nM (plasma; concentration not given, total, steady state).
For Cc1ccc([C@@H]2O[C@H](CO)[C@@H](O)[C@H](O)[C@H]2O)cc1Cc1ccc(-c2ccc(F)cc2)s1, the tmax was 1 h (human, preserved kidney function; 100 mg, steady state, median).
CC(=O)Nc1nnc(S(N)(=O)=O)s1 gave an aqueous solubility of 3.2 mM (≈ 711 µg/mL).
CC(C)(CO)c1cc2cc(NC(=O)C3(c4ccc5c(c4)OC(F)(F)O5)CC3)c(F)cc2n1C[C@@H](O)CO gave an AUCtau of 89300 ng·h/mL (human, cystic fibrosis, non-pregnant; dose not given, reported mean).
For CC(C)COc1ccc(CNC(=O)N(Cc2ccc(F)cc2)C2CCN(C)CC2)cc1, the free Cmax was 1.25 nM (plasma).
FC(F)(F)c1ccc(CNc2ccc(Cc3c[nH]c4ncc(Cl)cc34)cn2)cn1 gave an AUC(0-6 h) of 42800 ng·h/mL (human, plasma; 1000 mg/day, day 15, observed mean).
CC(=O)S[C@@H]1CC2=CC(=O)CC[C@]2(C)[C@H]2CC[C@@]3(C)[C@@H](CC[C@@]34CCC(=O)O4)[C@H]12 has a solubility of 25 µg/mL (≈ 60 µM) (FaSSIF; literature value).
The bioconcentration factor of c1ccc2c(c1)ccc1ccccc12 is reported as 243000 L/kg (fish; dose not given, experimental mean).
CNC(=O)c1ccc(N2C(=S)N(c3ccc(C#N)c(C(F)(F)F)c3)C(=O)C2(C)C)cc1F — result for “adverse event incidence”: 21% (item: arthralgias; post-docetaxel patients; dose not given, AFFIRM trial).
CC(C)[C@H](N)C(=O)OCC(CO)OCn1cnc2c(=O)[nH]c(N)nc21 (stereo partly drawn) has an oral bioavailability of 32% (human; 900 mg).
O=C1CCc2cc(OCCCCc3nnnn3C3CCCCC3)ccc2N1 gave a free Cmax of 128 nM (human).
The AUC(0-24 h) of COCCc1ccc(OCC(O)CNC(C)C)cc1 (stereo not drawn) is reported as 3310 ng·h/mL (human fasted; 300 mg multiple doses, day 7, mean).
With Nc1nc(N)c2nc(-c3ccccc3)c(N)nc2n1 the crossover pressure was 180 to 200 bar (supercritical CO2).
With CCC(=O)NCC[C@@H]1CCc2ccc3c(c21)CCO3 the solubility was < 1000 µg/mL (water).
O=C1Nc2ccc(Cl)cc2[C@@](C#CC2CC2)(C(F)(F)F)O1 gave a CLint of 0.694 µL/min/mg protein (human liver microsomes).
With Nc1nc2c(ncn2COCCO)c(=O)[nH]1 the oral bioavailability was 10 to 20% (human; 800 mg).
COc1cc2nc(c1)CNCCNCCNC2 has a pCu of 16.7 (aqueous solution; Cu(II) 1 µM, ligand 10 µM).
Cc1ncc([N+](=O)[O-])n1CCO has a solubility of < 1000 µg/mL (water).
The solubility of CCc1cc2c(cc1N1CCC(N3CCOCC3)CC1)C(C)(C)c1[nH]c3cc(C#N)ccc3c1C2=O is reported as 23 µg/mL (≈ 47.7 µM) (FaSSIF; literature value).
C=CC(=O)N1CCC(CNc2ncnc(N)c2-c2ccc(Oc3ccccc3)cc2)CC1 has an AUC(0-last) of 325 ng·h/mL (human; 75 mg once daily).
Nc1ccn([C@@H]2O[C@H](CO)[C@@H](O)C2(F)F)c(=O)n1 — result for “grade 3-4 neutropenia incidence”: 27% (metastatic pancreatic cancer patients; dose not given).
For Nc1ccn([C@H]2CC[C@@H](CO)O2)c(=O)n1, the oral bioavailability was 30% (mouse).
C[Si](C)(C)O[Si](C)(C)O[Si](C)(C)C has a log KOW of 5.35 (1-octanol/water; 25 °C).
COc1ccc(C[C@@H](C)[C@@H](C)Cc2ccc(OC)c(OC)c2)cc1OC — result for “QTc interval change”: < 10 ms (human; intravenous, dose not given, all cohorts except 1500 mg).
For CC(=O)O[C@H]1C(=O)[C@@]2(C)[C@H]([C@H](OC(=O)c3ccccc3)[C@]3(O)C[C@H](OC(=O)[C@H](O)[C@@H](NC(=O)c4ccccc4)c4ccccc4)C(C)=C1C3(C)C)[C@]1(OC(C)=O)CO[C@@H]1C[C@@H]2O, “grade 3 peripheral neuropathy incidence” read 3% (advanced urothelial cancer patients; 80 mg/m2 weekly, monotherapy).
For Cn1c(Cn2ccc(C(F)(F)F)c(Oc3cc(Cl)cc(C#N)c3)c2=O)n[nH]c1=O, the Cmin reduction was 97% (human; dose not given, strong CYP3A4 induction, with: rifampin).
CCN(CC)CCNC(=O)c1c(C)[nH]c(/C=C2\C(=O)Nc3ccc(F)cc32)c1C has a free Cmax of 13 nM (human).
The solubility of O=C(CCCN1CCC(O)(c2ccc(Cl)cc2)CC1)c1ccc(F)cc1 is reported as < 1000 µg/mL (water).
CN[C@H](CC(C)C)C(=O)N[C@H]1C(=O)N[C@@H](CC(N)=O)C(=O)N[C@H]2C(=O)N[C@H]3C(=O)N[C@H](C(=O)N[C@H](C(=O)O)c4cc(O)cc(O)c4-c4cc3ccc4O)[C@H](O)c3ccc(c(Cl)c3)Oc3cc2cc(c3O[C@@H]2O[C@H](CO)[C@@H](O)[C@H](O)[C@H]2O[C@H]2C[C@](C)(N)[C@H](O)[C@H](C)O2)Oc2ccc(cc2Cl)[C@H]1O has a fu of 67% (human, plasma).
With NC(=O)N1c2ccccc2CC(=O)c2ccccc21 the crossover pressure was 175 to 195 bar (supercritical CO2).
CC(C)Cc1ccc(C(C)C(=O)O)cc1 (stereo not drawn) gave a free Cmax of 921 nM (plasma).
COc1ccc(-c2oc3c(OC)c(OC)c(OC)c(O)c3c(=O)c2OC)cc1O: toxicity “not toxic” (zebrafish Danio rerio embryos; dose not given).
With CC(=O)Oc1cc(C(F)(F)F)ccc1C(=O)O the solubility was < 1000 µg/mL (water).
The half-life of N#C[C@@]1(c2ccc3c(N)ncnn23)O[C@H](CO)[C@@H](O)[C@H]1O is reported as 4.99 h (dog; intravenous, 2 mg/kg, unadjusted NCATS data).
With CC(C)(C)c1cc(C(C)(C)C)c(NC(=O)c2c[nH]c3ccccc3c2=O)cc1O the elimination half-life was 15 h (non-pregnant cystic fibrosis patients).
For Cc1cc(-c2nccc3c2ccn3CC(=O)Nc2ccc(-c3cnccn3)cn2)ccn1, “AUC(0-24 h), total” read 186 µM·h (rat; 60 mg/kg/day, 1 month, repeat dosing).
CC(C)NCC(O)c1ccc(O)c(O)c1 (stereo not drawn) gave a diarrhoea incidence of 0% (human; concentration not given, clinical).
With CCCCCCCCCCCCCCCC(=O)N[C@@H](CCC(=O)NCCCC[C@@H]1NC(=O)[C@H]([C@@H](C)CC)NC(=O)[C@@H](NC(=O)[C@@H]2CCCN2C(=O)[C@H](Cc2ccccc2)NC(=O)[C@H](Cc2c[nH]cn2)NC(=O)[C@@H](NC(=O)[C@H](CC(=O)O)NC(=O)CC(C)C)[C@@H](C)O)CSSC[C@@H](C(=O)N[C@@H](CCCCN)C(N)=O)NC(=O)CNC(=O)[C@H](CCCCN)NC(=O)[C@H](CO)NC(=O)[C@H](CCCNC(=N)N)NC(=O)[C@@H]2CCCN2C(=O)[C@H](CCC(=O)O)NC(=O)[C@H](Cc2ccccc2)NC1=O)C(=O)O the Tmax was 8 h (cynomolgus monkey, plasma; subcutaneous, 0.3 mg/kg).
O=C(c1cc(Cc2n[nH]c(=O)c3ccccc23)ccc1F)N1CCN(C(=O)C2CC2)CC1 has an AUC(0-24 h) of 1060 ng·h/mL (male rat; dose not given, after 4 weeks daily dosing, at NOAEL).
For C[C@@H](O[C@H]1OCCN(Cc2n[nH]c(=O)[nH]2)[C@H]1c1ccc(F)cc1)c1cc(C(F)(F)F)cc(C(F)(F)F)c1, the solubility was < 1000 µg/mL (water).
Cc1ccccc1CN1C(=O)C2=C(CCN(Cc3ccccc3)C2)N2CCN=C12 gave a Tmax of 0.75 h (human; oral, 625 mg, fasted, single dose).
For COCC(=O)O[C@]1(CCN(C)CCCc2nc3ccccc3[nH]2)CCc2cc(F)ccc2[C@@H]1C(C)C, the free Cmax was 12 nM (human).
The Tmax of CCN1CCN(Cc2ccc(Nc3ncc(F)c(-c4cc(F)c5nc(C)n(C(C)C)c5c4)n3)nc2)CC1 is reported as 6.7 to 8 h (rat; oral, single radiolabelled dose).
For C#C[C@]1(O)CC[C@H]2[C@@H]3CCC4=CC(=NO)CC[C@@H]4[C@H]3CC[C@@]21CC (mixture of isomers), “Cmax, geometric mean” read 1.81 ng/mL (human, fasted; 0.25 mg norgestimate, single dose, reference formulation).
With CN(C)C(=N)N=C(N)N the blood-to-plasma ratio was 1 (healthy human).
For CNCc1cc(-c2ccccc2F)n(S(=O)(=O)c2cccnc2)c1, the Tmax was 1.5 h (human, plasma; 15 mg single dose, observed clinical data).
OCc1cc(C(O)CNCCCCCCOCCCCc2ccccc2)ccc1O (stereo not drawn) has a Clast of 0.1 nM (human, plasma; inhaled, dose not given).
For Cn1c(=O)c2c(ncn2C)n(C)c1=O, “volume of distribution” read 0.6 L/kg (human; dose not given).
CN(C)C(=O)c1cc2cnc(Nc3ccc(N4CCNCC4)cn3)nc2n1C1CCCC1 gave a terminal half-life of 18 h (dog).
For O=C(O)c1cc(-c2ccc(F)cc2F)ccc1O, the Cmax was 759000 nM (plasma; concentration not given, total, steady state).
With CS(=O)(=O)c1ccc(C(=O)Nc2ccc(Cl)c(-c3ccccn3)c2)c(Cl)c1 the solubility was < 1000 µg/mL (water).
Under “grade ≥3 anaemia incidence”, Cn1cncc1-c1c(F)cncc1NC(=O)c1c(N)nn2cc(F)cnc12 is recorded as 36% (patients with advanced solid tumours; dose not given, monotherapy overall).
The oral bioavailability of Cc1cn([C@H]2C=C[C@@H](CO)O2)c(=O)[nH]c1=O is reported as > 80% (human; 0.67 mg/kg).
C#C[C@]1(O)CC[C@H]2[C@@H]3CCc4cc(O)ccc4[C@H]3CC[C@@]21C has a logP of 3.67.
CC(=O)O[C@@]12CO[C@@H]1C[C@H](O)[C@@]1(C)C(=O)[C@H](O)C3=C(C)[C@@H](OC(=O)[C@H](O)[C@@H](NC(=O)OC(C)(C)C)c4ccccc4)C[C@@](O)([C@@H](OC(=O)c4ccccc4)[C@H]21)C3(C)C has a diarrhoea incidence of 42% (human; concentration not given, clinical).
Cc1nc(NC(=O)N2CCC[C@H]2C(N)=O)sc1-c1ccnc(C(C)(C)C(F)(F)F)c1 gave a dose excreted of 81% (human, feces; oral, 400 mg, radiolabelled, fasted; relative to: dose).
For C=CC(=O)NC1CCN(c2ncc3ncnc(Nc4ccc(Oc5ccc6c(c5)ncn6C)c(C)c4)c3n2)CC1, the diarrhoea incidence was 1% (patients, NSCLC, HER2-mutant, previously treated; 120 mg once daily, treatment-related grade ≥3).

Some of these lines once more:
O=C1Nc2ccc(Cl)cc2[C@@](C#CC2CC2)(C(F)(F)F)O1 gave a CLint of 0.694 µL/min/mg protein (human liver microsomes).
With Nc1nc2c(ncn2COCCO)c(=O)[nH]1 the oral bioavailability was 10 to 20% (human; 800 mg).
COc1cc2nc(c1)CNCCNCCNC2 has a pCu of 16.7 (aqueous solution; Cu(II) 1 µM, ligand 10 µM).
Cc1ncc([N+](=O)[O-])n1CCO has a solubility of < 1000 µg/mL (water).
The solubility of CCc1cc2c(cc1N1CCC(N3CCOCC3)CC1)C(C)(C)c1[nH]c3cc(C#N)ccc3c1C2=O is reported as 23 µg/mL (≈ 47.7 µM) (FaSSIF; literature value).
C=CC(=O)N1CCC(CNc2ncnc(N)c2-c2ccc(Oc3ccccc3)cc2)CC1 has an AUC(0-last) of 325 ng·h/mL (human; 75 mg once daily).
Nc1ccn([C@@H]2O[C@H](CO)[C@@H](O)C2(F)F)c(=O)n1 — result for “grade 3-4 neutropenia incidence”: 27% (metastatic pancreatic cancer patients; dose not given).
